# Measured values pooled from the literature.
# A part holds a random share of what one study measured. Positions count from the first letter of the parent shown.

# Block 1
# Target: CREBRF, bZIP domain (human)
# Method: DHFR protein complementation
# Sample: yeast
# Setting: single substitutions, most at no-binding floor
# Baseline: wild-type JUN-FOS pair
# Reading: higher = stronger binding
# Starting sequence: JUN, bZIP domain (human); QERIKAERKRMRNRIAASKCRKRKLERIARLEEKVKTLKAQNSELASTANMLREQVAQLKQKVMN; partner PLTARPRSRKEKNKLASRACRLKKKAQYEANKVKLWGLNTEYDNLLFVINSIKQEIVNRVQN
Variant,binding fitness [natural log]
L59H,-1.16
N42I,-1.49
R30Y,-1.43
V35Y,-1.61
E33H,-1.39
T37G,-1.44
K36H,-1.5
S47T,-1.31
E33V,-1.52
S43E,-1.34
I28V,-1.54
Q58R,-1.38
A29D,-1.18
L31W,-1.42
R30L,-1.54
V56R,-1.51

# Block 2
# Target: RNA binding protein fox-1 homolog 2, RRM domain, GST-SBP tag (RBFOX2, Homo sapiens, UniProt O43251-10, residues 100-194)
# Method: RNA Bind-n-Seq
# Molecule type: RNA
# Sample: in vitro
# Tested at: 365 nM
# Setting: natural RNA segment, single round, ends assumed
# Baseline: no-protein control
# Reading: higher = stronger binding
# All sequences stand within: GGGAGUUCUACAGUCCGACGAUC … UGGAAUUCUCGGGUGCCAA
# Target sequence (chain): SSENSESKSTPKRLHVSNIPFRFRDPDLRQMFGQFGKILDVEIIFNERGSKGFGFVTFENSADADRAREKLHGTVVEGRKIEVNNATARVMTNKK
Sequence,RBNS enrichment (R)
CCCCAGGAGCACAGGUCUCUCCGGGCCGCUGUCCUGCGUAACUGUUCUCCAGAGCGCCAGCCAGCCACGGGCCUGAUUCCAGAGGAGCCGAACUGACAGGACACAGCAGG,0.336
AGAAAUCAAAUUAGUGUUUAAACCCAUUUGCAUAUUGACUUGUCAGUACCUUUAACUCAAUUUAAUAUAACAAGAAAUCGUAAAAUACUUAUAACCUAUCUUAGAGAAAU,0.466
UCUUCCCGGGAGCCCAGCGCAGCCCCCGGCUCUUACCCAGGACCCCGCCCCGUGCUGAGCCUUCUGCUGAGGUCCUUGCGUGGAGCACACUCAUUCCUCCAAGCCCUUGC,0.499
GUUUAUGUAUAUAUGUGAUUCUGAUAAAAUAGACAUUGCUAUUCUGUUUUUUAUAUGUAAAAACAAAACAAGAAAAAUAGAGAAUUCUACAUACUAAAUCUCUCUCCUUU,0.502
AAUACAAAGGAGACGAGGGAGGACUGUGGCUGGCGCUGAGGUUUUGGUCUUGCGAACCCCUAAAUUCUCUCGCUCACGACUGCACAGACUGUCUUGCGGCUCCUCUAUAG,0.525
GCAAUAAGGCCCGAUUCAUCCCACAGCACUGAUCAUCUCUCAAUGCCCCACCCCAAGCGAACGGUAAGAAGGCCUCUCUUAAGAAGGGGAGACAGAUGGCCCUAACUACU,0.69
AGGCCCCAAGCCAGGGGCAGUGAGGUCAUCUAGCAGUGACAGGAUCCCAUCAGGCUCCUUGGAAAGUGCUUCUACUUCCGAAGCCAACCCUGAGGGGCACUCAGCCAGCU,0.234
GAAAUAAGGUGACAAGUAAAGACUUUUAUAAUACCUACCUUCAAAAUUAGAAUCAGCAGCACUGUACAAAUAAAGUGCCUGUGCUUCACCUCACACCAAGAAUCUUGCCU,0.571
UUUAACCACAUUUCUGAAUGUAUAAAAAUACCAAUUAUUUUCCUACAGCCCUUUGUACUUCAAAAUAUGUUUUUGUGUCCAUCAGUAUUAACUAUUGGUAUACUACUGGU,0.784
CCCUUGAGUUUUACCAGCACAAGCCAUUCUUUGCCCCUGUUCACAUAACUGAGCUCAAGCUCUUGCCAAACACCAACAAGCAAGAUGGUUGCAACCUGGCAACAUUGAAU,0.393
AUUUUAUCCAAUACAUGUAAAUGAAUAAAAGCAUAAUCAAAAGGGCUUCAAUGUGCAAUUCCUUUCUGCUUCCAAAGGUAUGCCUGCUUUGCUUUUGACUCUAAGCAUAA,15.9
UUGUUGUUGUUUCCUUUUUGUAUUUUACUGAUAUCACCAGGAUAGUUUACUCUCCUUCUAGCUUUCUGCUUACCGCACACUGGAUAACACACACAUACACACCCACAAAA,0.399

# Block 3
# Target: CCND2, cyclin fold, Cln2 fusion (human)
# Method: yeast growth competition, sequencing
# Sample: yeast
# Setting: weak parent motif
# Baseline: not given
# Reading: higher = stronger binding
# Starting sequence: PKMYT1 docking peptide (human); SFEPRNLLSLFED; partner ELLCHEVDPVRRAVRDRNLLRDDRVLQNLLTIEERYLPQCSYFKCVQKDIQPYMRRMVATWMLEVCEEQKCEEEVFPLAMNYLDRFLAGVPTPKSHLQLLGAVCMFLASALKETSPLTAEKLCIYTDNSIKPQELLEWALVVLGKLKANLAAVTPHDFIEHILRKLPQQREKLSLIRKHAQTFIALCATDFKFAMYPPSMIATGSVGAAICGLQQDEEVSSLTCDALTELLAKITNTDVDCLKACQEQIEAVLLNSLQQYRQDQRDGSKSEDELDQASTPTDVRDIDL
Variant,normalised enrichment score
SFHPRNLLSLFED [E3H],0.239
SFAPRNLLSLFED [E3A],-0.105
SFEPRTLLSLFED [N6T],-0.133
SFEPGNLLSLFED [R5G],0.203
SFEPRNLLSLQED [F11Q],0.136
SFEPRNLASLFED [L8A],0.409
SFEPRILLSLFED [N6I],0.167
SFEPRFLLSLFED [N6F],0.258
SFEPRNLLSLFAD [E12A],0.0668
SFEPRNLLSLFEF [D13F],0.245
SFNPRNLLSLFED [E3N],0.00156
SFEPRNLLSDFED [L10D],0.216
SFLPRNLLSLFED [E3L],0.393
GFEPRNLLSLFED [S1G],-0.0137
SFEPRNLLSLFEE [D13E],0.0152
SFEPRNLLSLFEM [D13M],0.119
SKEPRNLLSLFED [F2K],-0.411
SFEPRNLLSLFEK [D13K],-0.163
SFEPRNDLSLFED [L7D],0.234

# Block 4
# Target: Centromere-binding protein 1, full length, N-terminal tag (CBF1, Saccharomyces cerevisiae, UniProt P17106, residues 1-351)
# UniProt P17106, sequence (whole entry, looked up): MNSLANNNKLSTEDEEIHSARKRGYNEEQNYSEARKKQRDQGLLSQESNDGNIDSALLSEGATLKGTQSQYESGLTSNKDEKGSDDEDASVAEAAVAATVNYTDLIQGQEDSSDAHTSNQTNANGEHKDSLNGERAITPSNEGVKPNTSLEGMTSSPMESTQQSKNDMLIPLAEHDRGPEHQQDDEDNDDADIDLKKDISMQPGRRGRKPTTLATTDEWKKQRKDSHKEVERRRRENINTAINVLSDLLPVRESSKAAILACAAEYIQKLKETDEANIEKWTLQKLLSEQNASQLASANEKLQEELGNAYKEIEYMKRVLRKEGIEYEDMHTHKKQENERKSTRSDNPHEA
# Method: protein-binding microarray
# Molecule type: double-stranded DNA, one strand shown
# Sample: in vitro
# Tested at: 0.8 µM
# Setting: whole 60-bp probe, no competitor
# Reading: higher = stronger binding
# All sequences stand within: … GTCTTGATTCGCTTGACGCTGCTG
Sequence,fluorescence intensity
CTATGGCATCAACGTGATTTTTGGAAGAAAGAATTC,1410 a.u.
CTAAAAGCGGCCAATCACGCCCGAAGACGGGACTTC,530 a.u.
CTACAATGCCTCTATGTCACCTTCAATAGAAGTTTC,524 a.u.
CTATCTGATGAAGGGCACGTATAGGTCAGTGACTTC,548 a.u.
GAAATTCGTACGTCCCATGTGCTCGGTCATACTTAG,621 a.u.
GAATATGCGAAGCCTGATGTGAAGAAAAGAATTTAG,541 a.u.
GAAAATAAGTAGTCTTACGTGATAAGAAATGATTAG,569 a.u.
GAAAGCACATAGACGCACGATACAAATACTAGTTAG,545 a.u.
GAACATTTTTGAAGTCATATGATTTTTCATGCCTAG,1450 a.u.
CTAACGGACACTTCTGATGTTTCAAAAGATATTTTC,546 a.u.
GAATGTTCTTAATATCATATGACCTCTGCAACATAG,1450 a.u.
CTAACTCTGTAATAGCTGACGATTCTTCAGTGATTC,468 a.u.
CTAGCTTAGCATCCACACGTCACAATCTCGGGTTTC,531 a.u.
CTAATGTACTTCCCACATGTGCCACGACCGTTCTTC,732 a.u.
GAATCCATAATGTCCCTCATGACCCATCTCTGCTAG,629 a.u.
CTAATACTATGGGTGCAGGTGAGGCGGTTTTTTTTC,545 a.u.
GAATCAATAGTTCATGTGGTATCAGTATTTCTGTAG,575 a.u.
GAAATACATTTACATCAGGTAAAGTATCATTTTTAG,492 a.u.

# Block 5
# Target: RING finger protein unkempt homolog, zinc fingers 1-6, GST-SBP tag (UNK, Homo sapiens, UniProt Q9C0B0, residues 30-357)
# Method: RNA Bind-n-Seq
# Molecule type: RNA
# Sample: in vitro
# Tested at: not given
# Setting: RNA with constant flanks, human and mouse sites, ends assumed
# Baseline: input RNA pool
# Reading: higher = stronger binding
# All sequences stand within: GGGAGUUCUACAGUCCGACGAUC … CAACAGAGGAUUGAGCAUCA
# Target sequence (chain): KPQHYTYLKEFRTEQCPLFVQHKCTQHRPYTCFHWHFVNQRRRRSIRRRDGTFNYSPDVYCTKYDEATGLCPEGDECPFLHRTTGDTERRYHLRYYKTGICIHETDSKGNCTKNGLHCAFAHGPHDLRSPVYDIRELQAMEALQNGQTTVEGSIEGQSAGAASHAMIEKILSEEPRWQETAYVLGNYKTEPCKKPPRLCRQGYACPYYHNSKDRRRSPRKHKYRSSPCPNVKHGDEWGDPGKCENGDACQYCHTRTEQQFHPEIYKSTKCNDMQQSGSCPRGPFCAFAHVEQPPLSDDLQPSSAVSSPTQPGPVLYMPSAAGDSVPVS
Sequence,bound/input enrichment [ratio]
GGAUUUGGAGAUGCAGUGGAUAAUAGUAAUUGCUGGCAGCCUGUUAUCGACUACAUUGAUAGUAAAUUUGAGGACUACCUAAAUGCAGAAUCACGAGUGAACAGACGUCAGAUGCCUGAU,0.412
UUGUGUGUGUGGUGAUGGAUGUGCAAGACUCAACACAUGUGAGCUGUAAACUCUACAAGGGGCUGUCAGAUGCACUAAUCUGUACAGACGACUUCAUUGCCAAAGUUGUUCAAAGAUGUA,0.2
UGGCGUCUGACUUGUAUGUCACAUUUGUGUAAAAUGGUAUAUUCUUUAAAAUAGUGUUGAUAACUGGAAUAUUGUAUGUAUGCUUGGAGAUGCUUUGUGUGAACCUAAGACUGUCACUCA,1.78
UAUUUCCCACUGUGUGUCGACCUUAGGAGCCACUGGAGGAGAGAGCACUUUCGUAGAUCACCAGUGGGAAAGCAGUUUUUAAACAACGGAUAUACCCCCUGUUAGCUGUGUAGUCGGAUA,0.736
CAGACCUACAUCAACGGCCUCCUCACUGGGUACAGCUCCACCCUGUGGAUCGGCUUGAAUGACUUGGACACGAGCGGAGGCUGGCAGUGGUCGGACAACUCGCCCCUCAAGUACCUCAAC,0.0533
CUCAGAAGAGCCAAAUCGAAAAAUGGGGGGAGAUCCUUGAGAGAAAGGCUAGAAAAAAUCGGUUUGAAUUUACCCGCGGGCAGGCGCAAAGCAGCAAAUGUCACGUUACUCACCUCACUG,0.144
CAAAGGAGUCUCGAAGAGUCUCAAGGGAAAAUAGCCCAACUGGAGGGAAAACUUGUUUCAAUAGAGAAAGAAAAGAUUGAUGAAAAAUCUGAAACAGAAAAACUCUUGGAAUACAUCGAA,0.373
AAAGAAGAGAAAGAAGAUGAAAUUUCAUUAGAAGAUCUAAUUGAGAGAGAGCGUUCUGCCCUAGGUCCAAAUGUUACCAAAAUCACUCUAGAAUCUUUUCUUGCCUGGAAGAAAAGGAAA,0.674
AUCUUGGCCUUUCUGUGGAGGGAGUUAAGAACUAAAAUACCAAAAAUCACUUUAUUUCUUUUAAGACAAUUAUCUGGCCUAAACCCAGAAAGCAGUACUGGAGCAAAAGCCCAGUGUAUA,0.816
UUCCGUCAGCGCUUCCUCUACUCCCUGUAUCGACACACACACUGGGUACGCUGCGCCAAAUUUUCACCUGACGGAAGGUUGAUCGUGUCAUGUAGUGAGGAUAAAACUAUUAAAAUUUGG,0.511
UAAGUAUGAAAUGGUGUAUGCCAGUACACAUUCCUCUUCCAGUUCUCCUAAGUGCUGACCACUAGGUCAGUCUGGGACACAUCAGUGUAUGGCUAGGCUGGCUAGCUUUAGCACAGUGGA,0.16

# Other studies, line by line
Molecule,target,test,system,conditions,scale,endpoint,result
"PhoQ, residues 284 288 289 292 302 303 ASASEQ","PhoP, residues 12 14 15 18 19 LHATL (Escherichia coli, UniProt P23836)","Sort-seq, refers to: YFP reporter",E. coli,"PhoQ-PhoP variant library, together with: 10 µM Mg2+","baseline: high Mg2+ state, higher = stronger signaling",fold induction,17.1
